Experimental data pooled from the literature.
Numbered parts are unrelated; each lists some results of a single study. Values joined by “and” are separate records of one study, mostly repeats; a detail may differ.

Study 1
Structure (SMILES): c1ccc(Oc2ccc(Nc3c4c(nc5ccccc35)CCC4)cc2)cc1
Time: 64 h
PMA-differentiated THP-1 macrophages; 80 µM — cytotoxicity: 100%.
For PMA-differentiated THP-1 macrophages; 2 µM: cytotoxicity read -3% and -1%.
J774.1; resazurin; 0.0066 µM — cytotoxicity: -3%.

Study 2
Species: human
Sample: microsomes or S9
Tested at: 2 µM
Time: 0.5 h
Cc1nc(C)n(C(C)CNC(=O)CN2C(=O)COc3ccc(C(C)(C)C)cc32)n1 (stereo not shown) gave a remaining compound of > 100%.
With CC1=CC[C@@H]2CN(C(=O)c3sc(C(C)C)nc3C)C[C@@H]2C1 the remaining compound was 23.5%.
The remaining compound of CN(C)S(=O)(=O)c1cc(C(=O)NC2CCCCC2)c(Cl)cc1Cl is reported as 38.4%.
With COc1cc2c(Nc3ccc(Br)cc3F)ncnc2cc1OCCCN1CCOC(CO)C1 (stereo not shown) the remaining compound was 95%.
Oc1ccccc1-c1nc(-c2ccccc2O)n(-c2ccc(Br)cc2)n1 gave a remaining compound of 89.9%.

Study 3
Target: 5-hydroxytryptamine receptor 1B (HTR1B, Homo sapiens, UniProt P28222)
Chain of UniProt P28222 (whole entry, looked up): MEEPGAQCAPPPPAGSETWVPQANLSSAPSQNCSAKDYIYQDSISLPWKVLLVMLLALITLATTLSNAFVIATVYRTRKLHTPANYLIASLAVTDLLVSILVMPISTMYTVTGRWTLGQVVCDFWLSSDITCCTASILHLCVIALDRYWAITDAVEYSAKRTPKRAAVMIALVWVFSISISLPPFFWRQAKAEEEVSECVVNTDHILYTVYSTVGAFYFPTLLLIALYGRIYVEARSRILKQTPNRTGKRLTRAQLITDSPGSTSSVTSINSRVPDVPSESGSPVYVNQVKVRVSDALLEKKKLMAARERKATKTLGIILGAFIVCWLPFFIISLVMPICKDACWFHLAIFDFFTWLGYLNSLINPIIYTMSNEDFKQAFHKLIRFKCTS
Effect on: ligand displacement
Technique: radioligand
Tested at: 10 µM
The inhibition of CC(C)(C)OC(=O)N1CCCC1CNC1CCC(c2cc(F)ccc2F)(S(=O)(=O)c2ccc(Cl)cc2)CC1 (stereo not shown) is reported as 70.4%.
With CN1CCN(c2cnc3c(C4CCN(C(=O)c5ccc(OC(F)(F)F)cc5N)CC4)ncnc3c2)CC1 the inhibition was 14.9%.
The inhibition of C[C@@H](c1cccc(C#N)c1)n1cc(Cl)cc(C(N)=O)c1=N is reported as -2.19%.
For CCC(=NO)C(C)=Cc1ccc(F)c(C)c1, the inhibition was -1.04%.
For Nc1cnc(N2CCc3cc(S(=O)(=O)Nc4c(F)cc(Cl)cc4F)cc(N4CCCC4=O)c32)nc1, the inhibition was -3.82%.
CNC(=O)Nc1ccc2c(c1)CC[C@]21OC(=O)N(CC(=O)N(Cc2ccc(F)cc2)[C@@H](C)C(F)(F)F)C1=O gave an inhibition of 9.82%.
For CS(=O)(=O)c1cc(C2(NC(=O)c3cncc4c3cnn4-c3ccc(F)cc3)CC2)ccn1, the inhibition was 13.5%.
For COc1ccc2c(O[C@@H]3C[C@H]4C(=O)N[C@]5(C(=O)O)CC5/C=C\CCCCC[C@H](NC(=O)OC5CCCC5)C(=O)N4C3)cc(-c3csc(NC(=O)C(C)C)n3)nc2c1C (stereo partly shown), the inhibition was 7.71%.
COc1cc(-c2cn(C3CCc4ccccc4N(CC(F)(F)F)C3=O)nn2)ccc1-n1ccc(C)n1 (stereo not shown) has an inhibition of 30.8%.
For Cn1cncc1[C@](O)(COc1ccc(C#N)cc1-c1ccc(OC(F)(F)F)cc1)c1ccc(C#N)cc1, the inhibition was -4.28%.
The inhibition of Cc1cc(-n2nc(Cc3cc(F)cc(C(F)(F)F)c3)nc2C)ccc1C(N)=O is reported as 13.8%.
The inhibition of CCC(=O)N[C@H]1CC[C@@H](C(=O)N(C)c2ccc(-c3nc4ccccc4o3)cc2)C1 is reported as 25.7%.
The inhibition of Cn1nc(C(F)(F)F)cc1-c1cnc(N2CCc3cc(S(=O)(=O)Nc4c(F)cc(Cl)cc4F)cc(N4CCCC4=O)c32)nc1 is reported as 9.13%.

Study 4
Target: Casein kinase II subunit alpha' (CSNK2A2, Homo sapiens, UniProt P19784)
Chain of UniProt P19784 (whole entry, looked up): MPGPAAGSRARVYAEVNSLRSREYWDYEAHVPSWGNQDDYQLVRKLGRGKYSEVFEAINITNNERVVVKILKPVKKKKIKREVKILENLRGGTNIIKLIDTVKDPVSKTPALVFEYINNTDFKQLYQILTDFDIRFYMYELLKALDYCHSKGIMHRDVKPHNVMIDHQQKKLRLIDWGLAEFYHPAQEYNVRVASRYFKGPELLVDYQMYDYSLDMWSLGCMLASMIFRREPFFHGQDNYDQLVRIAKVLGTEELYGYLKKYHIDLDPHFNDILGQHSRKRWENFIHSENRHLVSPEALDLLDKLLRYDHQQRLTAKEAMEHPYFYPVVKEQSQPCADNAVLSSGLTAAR
Effect on: enzyme activity
Mode: inhibitor
Tested at: 0.5 µM
Reference: control
COc1cc2ncnc(Nc3ccc(F)c(Cl)c3)c2cc1OCCCN1CCOCC1 has a remaining activity of 88.6%.
CN(C)c1ccc(C=C2C(=O)Nc3ccccc32)cc1 gave a remaining activity of 98.6%.
The remaining activity of OCC(O)CCON=C1C(c2c(O)[nH]c3ccccc23)=Nc2ccccc21 (stereo not shown) is reported as 28.3%.
For Cc1cccc(-c2[nH]c(C(C)(C)C)nc2-c2ccc3c(c2)OCO3)n1, the remaining activity was 83.6%.
For Nc1ccc2ncnc(NCCc3ccc(Oc4ccccc4)cc3)c2c1, the remaining activity was 103%.
COc1ccc(CNC(=O)Nc2ncc([N+](=O)[O-])s2)cc1 gave a remaining activity of 92.9%.
O=C(CCCc1ccc(-c2ccccc2F)cc1)Nc1ccc(O)cc1 gave a remaining activity of 78.7%.
Cn1sc(=O)n(Cc2ccccc2)c1=O has a remaining activity of 98.5%.
For CNC(=O)c1cc(Oc2ccc(NC(=O)Nc3ccc(Cl)c(C(F)(F)F)c3)cc2)ccn1, the remaining activity was 94.4%.
With N#CC(C#N)=C(N)/C(C#N)=C/c1ccc(O)cc1 the remaining activity was 102%.
With O=S(=O)(c1cccc2cnccc12)N1CCCNCC1 the remaining activity was 91.9%.
Nc1[nH]nc2nc3ccccc3nc12 has a remaining activity of 94%.
The remaining activity of C#Cc1cccc(Nc2ncnc3cc(OCCOC)c(OCCOC)cc23)c1 is reported as 99.6%.

Repeated from above (study 4):
For Nc1ccc2ncnc(NCCc3ccc(Oc4ccccc4)cc3)c2c1, the remaining activity was 103%.
Cn1sc(=O)n(Cc2ccccc2)c1=O has a remaining activity of 98.5%.
